Published values of several laboratories.
Compare with care: the assays were run in different laboratories. ± gives the spread as reported.
NR3C1: Glucocorticoid receptor (NR3C1, Homo sapiens, UniProt P04150)

By UniProt entry, the sequences of proteins in these tests, tags left out.
UniProt P04150, whole entry: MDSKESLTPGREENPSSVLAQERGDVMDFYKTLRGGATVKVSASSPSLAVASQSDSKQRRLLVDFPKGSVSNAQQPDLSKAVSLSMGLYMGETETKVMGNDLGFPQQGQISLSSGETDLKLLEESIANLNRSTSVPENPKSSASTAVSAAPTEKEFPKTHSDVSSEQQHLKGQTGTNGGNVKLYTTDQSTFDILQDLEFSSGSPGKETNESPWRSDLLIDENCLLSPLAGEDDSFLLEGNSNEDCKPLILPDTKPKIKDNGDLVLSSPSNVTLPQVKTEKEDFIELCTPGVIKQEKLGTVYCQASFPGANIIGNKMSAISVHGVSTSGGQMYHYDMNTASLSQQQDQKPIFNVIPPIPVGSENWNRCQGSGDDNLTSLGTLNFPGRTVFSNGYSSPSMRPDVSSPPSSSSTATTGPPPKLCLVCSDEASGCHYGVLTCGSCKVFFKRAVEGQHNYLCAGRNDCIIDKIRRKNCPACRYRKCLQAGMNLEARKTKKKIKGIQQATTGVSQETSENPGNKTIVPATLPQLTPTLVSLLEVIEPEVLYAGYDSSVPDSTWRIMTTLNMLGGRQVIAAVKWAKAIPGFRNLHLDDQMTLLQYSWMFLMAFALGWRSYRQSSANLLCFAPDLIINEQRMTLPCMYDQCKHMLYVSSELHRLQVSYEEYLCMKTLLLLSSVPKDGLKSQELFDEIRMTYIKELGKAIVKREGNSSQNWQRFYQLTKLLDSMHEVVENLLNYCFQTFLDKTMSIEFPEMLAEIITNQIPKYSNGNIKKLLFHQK
UniProt P09769, whole entry: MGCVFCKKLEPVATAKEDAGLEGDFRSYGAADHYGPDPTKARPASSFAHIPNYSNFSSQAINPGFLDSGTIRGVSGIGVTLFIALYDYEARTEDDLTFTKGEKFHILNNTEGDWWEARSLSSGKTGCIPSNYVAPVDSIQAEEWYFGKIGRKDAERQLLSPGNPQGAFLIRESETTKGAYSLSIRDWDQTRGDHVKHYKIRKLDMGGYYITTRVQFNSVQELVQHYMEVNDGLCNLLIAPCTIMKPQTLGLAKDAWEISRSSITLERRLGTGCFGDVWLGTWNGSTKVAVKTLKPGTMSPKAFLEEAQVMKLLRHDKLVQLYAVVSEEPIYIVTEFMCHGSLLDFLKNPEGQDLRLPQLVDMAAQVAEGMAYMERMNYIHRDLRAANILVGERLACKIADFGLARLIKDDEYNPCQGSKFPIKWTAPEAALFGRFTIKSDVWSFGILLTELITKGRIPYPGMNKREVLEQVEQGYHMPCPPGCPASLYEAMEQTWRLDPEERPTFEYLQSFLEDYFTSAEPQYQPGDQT

CC1C=CC(C)N1C(=O)CON=C1C=CCCC=CCCOC(=O)c2c(O)cc(O)cc2C1 (stereo not shown) — EC50 (SK-BR-3; Her-2 depletion, refers to: Her-2; overnight): ≤ 1 µM
O=C(/C=C/c1nc2ccccc2[nH]1)c1c(-c2ccccc2)c2cc(Cl)ccc2[nH]c1=O — EC50 (SK-MEL-5; cell viability, CellTiter-Blue; 72 h): 5 µM
CCN1CCN(Cc2ccc(NC(=O)c3ccc(C)c(Oc4ncnc5cc(OC)c(OC)cc45)c3)cc2C(F)(F)F)CC1 — complete inhibition concentration (FGR (Homo sapiens, UniProt P09769); autophosphorylation, immunoblot, refers to: activation loop phosphotyrosine; TF-1 transduced with FGR; 6 h): > 10 nM
CN1C(=O)c2ccccc2N(C)c2nc(Nc3ccc(N4CCC(O)CC4)cc3)ncc21 — EC50 (HeLa S3; cell growth, CellTiter-Glo; 96 h): 0.0167 µM
Cc1[nH]c2ccccc2c1CCNC(=O)c1ccc(-c2nn[nH]n2)cc1 — mRNA level (BV2 cells expressing human EP2; antagonist, qRT-PCR, refers to: human EP2; 0.3 to 1 µM, 1 h pretreatment, with: LPS 100 ng/mL 2 h, ONO-AE1-259-01 30 nM; reference: vehicle): no effect
c1ccc2[nH]c3c(N=NC4=NCCN4)c4ccccc4c-3nc2c1 — IC50 (MDA-MB-468; cytotoxicity, MTT; 96 h): 0.3 ± 0.18 µM
NC(=O)c1ccc(-n2cccc2Cc2ccccc2O)cc1N[C@H]1CC[C@H](O)CC1 — protein level (HEK cells expressing I477N myocilin; Western blot, refers to: I477N myocilin; 30 µM, 24 h): decreased
CC(C)CCC[C@@H](C)[C@@H]1CC[C@@H]2[C@H]3CC[C@H]4C[C@@H](N)CC[C@@]4(C)[C@@H]3CC[C@]21C — EC50 (NR3C1; nuclear translocation, agonist, enzyme fragment complementation): > 9 µM
CCCN(CCC)C(=O)CON=C1C=CCCC=CCCOC(=O)c2c(O)cc(O)cc2C1 — EC50 (SK-BR-3; Her-2 depletion, refers to: Her-2; overnight): ≤ 1 µM
O=C1CCC(N2C(=O)c3cccc(NCCOCCOCCOCCN4CCN(c5ccc(-c6ccc7c(c6)C(=O)N(C(C(=O)Nc6nccs6)c6ccccc6)C7)cn5)CC4)c3C2=O)C(=O)N1 (stereo not shown) — EC50 (Ba/F3 EGFR L858R/T790M/C797S; cell proliferation): 0.041 µM
Cc1cccc(NC(=O)c2nn(Cc3cnc[nH]3)c3c2CN(C(=O)c2ccc[nH]2)CC3)c1 — G0-phase cells (IDH1 R132C AML cells; Hoechst/Pyronin Y staining; 3 µM, 7 days): 54.1 ± 3.8%
O=C(Nc1cccnn1)N1CC(Oc2ccc(-c3ccccc3F)cn2)C1 — Emax (Emax model of Ctrough concentration-response, refers to: plasma OEA; human, plasma; oral, repeated daily dosing): ~8 ng/mL
O=c1/c(=C/c2ccc(-c3cc(Cl)cc(Cl)c3)o2)sc2nc3cc(Br)cnc3n12 — phospho-ERK1/2 level (Jurkat TAg T cells; TCR signalling, immunoblot; 40 µM, 45 min preincubation, with: OKT3 5 min; reference: DMSO): increased
CCN1CCN(Cc2ccc(Nc3ncc4c(n3)N(C)c3c(F)cccc3C(=O)N4C)cc2C(F)(F)F)CC1 — EC50 (HeLa S3; cell growth, CellTiter-Glo; 96 h): 0.792 µM
COc1cc(CC(=O)NCC(NC(=O)C(CCCNC(=O)c2cccc(I)c2)NC(=O)C(Cc2ccc(C(F)(F)P(=O)(O)O)cc2)NC(=O)c2ccc(C)c(Br)c2)C(N)=O)ccc1O (stereo not shown) — IR Tyr1162/1163 phosphorylation increase (primary mouse hepatocytes; Western blot; 50 nM, 1 h, with: insulin 5 nM, 5 min; reference: DMSO): 50%
CN1CCN(c2nc(NCc3nc4cc(Cl)ccc4[nH]3)c3ncn(-c4ccoc4)c3n2)CC1 — EC50 (A-375; cell viability, MTT): 0.003 µM
Cc1cc(C)c(CNC(=O)c2cc(-c3ccc(N4CCN(CCNC(=O)CC56CC7CC(CC(C7)C5)C6)CC4)nc3)cc3c2cnn3C(C)C)c(=O)[nH]1 — GI50 (MDA-MB-468; cell growth): 2.2 µM
CC1CCN(C(=O)CON=C2C=CCCC=CCCOC(=O)c3c(O)cc(O)cc3C2)CC1 — EC50 (SK-BR-3; Her-2 depletion, refers to: Her-2; overnight): ≤ 0.5 µM
CCN1CCN(Cc2ccc(Nc3ncc4c(n3)N(C)c3c(C)cccc3C(=O)N4C)cc2C(F)(F)F)CC1 — EC50 (HCT-116; cell growth, CellTiter-Glo; 96 h): 0.238 µM
CCCC1CC=CCCC(C)=CC(=NOCC(=O)N(CC)CC)Cc2c(Cl)c(O)cc(O)c2C(=O)O1 (stereo not shown) — EC50 (SK-BR-3; Her-2 depletion, refers to: Her-2; overnight): > 10 µM
C[C@]12CCC(=O)C=C1CCC1C2CC[C@]2(C)C(n3cnc4ccccc43)=CCC12 (stereo partly shown) — IC50 (LNCaP; cell proliferation, XTT; 7 days, without DHT): 2.2 µM
Cc1c(O)cc2c(c1C)O[C@](C)(CCCC(C)C)CC2 — IC50 (LNCaP-abl; cell proliferation, MTT): 7 µM
O=c1/c(=C/c2ccc(-c3ccccc3[N+](=O)[O-])o2)sc2nc3cc(Br)cnc3n12 — phospho-p38 level (Jurkat TAg T cells; TCR signalling, immunoblot; 40 µM, 45 min preincubation, with: OKT3 5 min; reference: DMSO): increased
CC1=C(CC[C@H](C)CO)O[C@@H]2C[C@@H]3[C@H]4CC[C@H]5C[C@@H](O)CC[C@]5(C)[C@@H]4CC(=O)[C@@]3(C)[C@@H]12 — EC50 (NR3C1; nuclear translocation, agonist, enzyme fragment complementation): > 9 µM
Cc1ccc([C@H](CC(=O)O)NC(=O)Nc2c(O)c(C)cn(Cc3ccccc3Cl)c2=O)cc1 — AKT phosphorylation (B-ALL cells; western blot; 25 µM, 1 h, with: serum after starvation): no effect
CC(C)c1cc2c(N3CCN(C4=NCC(C)(C)S4)CC3)ncnc2s1 — CD11b expression (MLL-AF9 transformed mouse BMC; flow cytometry; 7 d; reference: DMSO): increased
C[C@H]1CCCN1Cc1cc2cnc(NC(=O)c3ccc4c(cnn4C)c3)cc2[nH]1 — mRNA level (primary AML cells, MLL1-rearranged or NPM1-mutant; RT-qPCR, refers to: MYC, HOXA9, MYB; 1 µM): decreased
Nc1c(C(=O)Nc2c(F)cc(F)cc2Br)sc2nc3c(cc12)CCC3 — total cellular copper increase (H1299; ICP-MS; 10 µM, 12 h): ~45%
CN(C)S(=O)(=O)c1cccc(-n2sc3ccccc3c2=O)c1 — mineralization (mouse vascular smooth muscle cells; Alizarin Red staining; 30 µM, 21 days, with: inorganic phosphate; reference: vehicle): 41.8 ± 2%
CC1CN(C(=O)CON=C2C=CCCC=CCCOC(=O)c3c(O)cc(O)cc3C2)CC(C)O1 (stereo not shown) — EC50 (SK-BR-3; Her-2 depletion, refers to: Her-2; overnight): ≤ 5 µM
COc1cc(N2CCN(C)CC2)ccc1Nc1ncc2c(n1)N(C)c1ccccc1C(=O)N2 — cell growth (A549; cell count; 10 µM, 7 d): inhibited
